Measurements collected from several papers.
Numbered parts are unrelated; each lists some results of a single study.

Sample 1
Target: Probable WRKY transcription factor 33, C-terminal DNA-binding domain (WRKY33, Arabidopsis thaliana, UniProt Q8S8P5, residues 346-449)
Method: DNA-protein interaction ELISA
Molecule type: double-stranded DNA, one strand shown
Medium: in vitro, bacterial lysate
Tested at: not given
Setting: whole dsDNA probe, crude lysate protein
Relative to: highest signal in screen
Direction: higher = stronger binding
Construct (chain): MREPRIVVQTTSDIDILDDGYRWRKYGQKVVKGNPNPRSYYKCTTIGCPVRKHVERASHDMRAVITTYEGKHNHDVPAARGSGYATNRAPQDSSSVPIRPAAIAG
The relative absorbance of `AAAAAATGTGGTTACGGCCTCGATGAAAAA` is reported as 36.8 % of maximum.
`AAAAAAGTTTCTGCTTTCCCTTTCGTAAAA` has a relative absorbance of 30.6 % of maximum.
The relative absorbance of `AAAAAAATTTTTAGTTTTAATTTTGGAAAA` is reported as 34.4 % of maximum.
The relative absorbance of `AAAAAATTTTGTGGTGTTTCGCCACCAAAA` is reported as 29.7 % of maximum.
`AAAAAACTGTGTCCCCGTCCCATCTCAAAA` gave a relative absorbance of 33.7 % of maximum.
The relative absorbance of `AAAAAATGAATCAATTTTTGGGCTTTAAAA` is reported as 34.5 % of maximum.
With `AAAAAACTACTACCTTTGCCTAAGCGAAAA` the relative absorbance was 28.2 % of maximum.
`AAAAAATATATTTTCAGCTTTAATCTAAAA` has a relative absorbance of 40.8 % of maximum.
For `AAAAAATGCCCATGTGCACCCGTACGAAAA`, the relative absorbance was 35 % of maximum.
`AAAAAAATCTTTGCGTCGAGATTCTTAAAA` has a relative absorbance of 28.1 % of maximum.
For `AAAAAACGCTCCGTTTTTGCAATGCGAAAA`, the relative absorbance was 29.7 % of maximum.
The relative absorbance of `AAAAAAAAGAGCCTGGGGGTTCGCATAAAA` is reported as 31 % of maximum.
For `AAAAAATGTGCCCGTGTGTGCTCGCGAAAA`, the relative absorbance was 32.8 % of maximum.
With `AAAAAATTTGTACTTTAAGTTTACATAAAA` the relative absorbance was 32.8 % of maximum.
For `AAAAAATAGGCGTTATGGCTAACACCAAAA`, the relative absorbance was 30.5 % of maximum.
For `AAAAAACTGCTAATCGGTGACCCGATAAAA`, the relative absorbance was 49 % of maximum.
`AAAAAAAGTAGTTACTGCGAAAGTCTAAAA` has a relative absorbance of 35.3 % of maximum.
`AAAAAAAGGTCATTGCTGCTGGTGTTAAAA` has a relative absorbance of 91.6 % of maximum.
`AAAAAACTAGGTATCGGTAGGCGCCGAAAA` has a relative absorbance of 34.1 % of maximum.
`AAAAAATCTTCTTGTTTCTTATTTCTAAAA` gave a relative absorbance of 33.8 % of maximum.
`AAAAAAGGCTGTGGCCAATGTTCGTAAAAA` gave a relative absorbance of 26.6 % of maximum.
For `AAAAAAGCTTCTCATGTTGTCTTAGGAAAA`, the relative absorbance was 33.5 % of maximum.
`AAAAAATTCGTATCTGTACCCTATGCAAAA` gave a relative absorbance of 45.7 % of maximum.
For `AAAAAAACTCACGGCGTCACTATGGTAAAA`, the relative absorbance was 35.6 % of maximum.
For `AAAAAAAAATCGAATTTGGACTTCCGAAAA`, the relative absorbance was 54.6 % of maximum.

Sample 2
Target: Hepatocyte nuclear factor 3-alpha (Foxa1, Mus musculus, UniProt P35582, residues 1-468, full length assumed)
Method: EMSA with sequencing
Molecule type: double-stranded DNA, one strand shown
Medium: in vitro
Tested at: 10 and 20 nM
Setting: whole designed probe, mean of two concentrations, ends assumed
Relative to: negative control set to 0
Direction: higher = stronger binding
All sequences stand within: GTGAGCGGTGCCCATTGATGGGGAAC … TTTCACTGGGATCGTGGGGAC
Construct (chain): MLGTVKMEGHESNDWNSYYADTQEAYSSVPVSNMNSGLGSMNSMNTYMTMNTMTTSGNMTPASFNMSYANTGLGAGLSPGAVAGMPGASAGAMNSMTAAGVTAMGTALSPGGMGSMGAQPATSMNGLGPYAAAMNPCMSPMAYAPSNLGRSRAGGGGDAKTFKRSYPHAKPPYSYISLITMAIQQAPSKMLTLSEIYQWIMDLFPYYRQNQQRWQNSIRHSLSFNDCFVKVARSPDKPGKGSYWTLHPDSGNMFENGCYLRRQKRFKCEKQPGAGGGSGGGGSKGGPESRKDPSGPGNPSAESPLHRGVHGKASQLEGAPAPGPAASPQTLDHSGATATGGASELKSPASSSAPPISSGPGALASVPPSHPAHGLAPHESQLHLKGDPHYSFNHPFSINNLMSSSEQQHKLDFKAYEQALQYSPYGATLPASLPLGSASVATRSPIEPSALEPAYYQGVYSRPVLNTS
Under “normalised bound fraction”, `CCATCTCAGCTGAGGGTACTATCATCCACCCTGTGGCCACATCCAGGAATGTGTGTATCACCTGGGCTCTGAGGAAGTCAACTGCTCTTCTAAGTCAACAGAATGTCGGGTCTGTTCTAAAAGTCTCATCTGACAAGGAGATCTTTAAGGCTTTACTCCCTTAAAGGCTTTACTCCCATCATGATGGGATAAC` is recorded as 0.176 ratio.
Under “normalised bound fraction”, `CATTAGAGTCAAAGTTGTTAAGGGGAGCTAGTCATAGCTACCACGTGGCCAGGCATGTGGAACCAGACACCAGGCACACATCATGAATCATCAAAATTACTTTAAATAATGCTGACAACCTAGTTCATAGTGACACACTACTTGAGATATATAGAATAACATTATTACCCAGTAAGTATGTGAACATTCCGAT` is recorded as 0.116 ratio.
For `TGTTCCAGCAGGTTGATGGAGCATAGGGGCTTCAAAGGAACCGGTGATGCAGTCATGCTGTGGCTGGAGTTTACGAAAGGCTGACTCACCAAAGGTCAACAGAGACATTTACACAAACATCCTGACCCCAAGTCCAGTGCTCTTTCTAATCTATAACAGGGTTCTTCCTTTTTTTCTTTTTCTTTCACTTTTT`, “normalised bound fraction” read 0.0971 ratio.
For `TGATACAGAATTTCTCAGTATAATTACCTCCAGCCAGGTTGCTTTTTTAGCTCAAAAGAAAGATAAAAGGCGGAGTCCTGTAAATAAAGGGAATGTAATCTTGGAGACTGAACCAAAGGCAAGTTACGGGGAGATAAGAATACCTGAAGAGAATTCGATTCAGCTTGATGGTTTTACAGAAGCATATGAAAGT`, “normalised bound fraction” read 0.0333 ratio.
Under “normalised bound fraction”, `AAGCAATACATGTTGTCAAAATACAGTGGCAACGGGAACCGAATAGATGTGAAGCAATGAGTGAGCCACCAATTACTAAAATATGTGGTCCTGAGTAAACAAGAGCTTAACGGAGAGATGAGAGGCGCCTGTGAAGTTGGAAAAGGTGGGCATAAGAATGTGTGCTAACTAGACCTGAAGTCTAGGCCGGCTG` is recorded as 0.45 ratio.
`CCCACCCCCTCCAAAAGAAGCACTTTACTTATGTACTCACATATTTTCGGTTTCTGTGGCTGTGTTACTGGGTAGCTGTCCAGTTGAGACGAGATGTTTACTTAAGCCACACCCAGCAGAGTCAGCTTTTAATGTGTTGGGGGCACTATTTTAATCCTGTGCTGATTTGTAACCATCATCTATGGGATGCCTT`: “normalised bound fraction” 0.465 ratio.

Sample 3
Target: Histone acetyltransferase KAT6A, both winged helices, GST fusion (KAT6A, Homo sapiens, UniProt Q92794, residues 1-181)
Method: protein binding microarray
Molecule type: double-stranded DNA, one strand shown
Medium: in vitro
Tested at: not given
Setting: 8-mer, flanks averaged, mean of 2 arrays, mostly near background
Relative to: not given
Direction: higher = stronger binding
Construct (chain): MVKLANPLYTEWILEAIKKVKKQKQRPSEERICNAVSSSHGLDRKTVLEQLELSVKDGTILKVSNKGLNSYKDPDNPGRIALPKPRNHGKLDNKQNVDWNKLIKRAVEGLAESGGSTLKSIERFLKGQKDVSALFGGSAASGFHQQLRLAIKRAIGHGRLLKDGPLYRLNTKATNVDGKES
For `GGCGACAC`, the E-score was 0.171.
`CGTCCGAA` has an E-score of 0.202.
`AGTTATCC` gave an E-score of -0.0954.
For `CGACTAAC`, the E-score was -0.0605.
With `CGTCACGA` the E-score was 0.104.
The E-score of `AGTTCACA` is reported as -0.0602.
For `CACGACCC`, the E-score was -0.0901.
`AAACGTAA` has an E-score of 0.0094.
With `CGCACAAG` the E-score was 0.105.
For `CAATAATG`, the E-score was 0.0107.
`ACGCTCAC` gave an E-score of 0.197.
With `CTACCATC` the E-score was -0.0667.
For `CAACGCAC`, the E-score was 0.124.
`CACGGTGG` gave an E-score of -0.0592.
For `CGCGGAAG`, the E-score was 0.281.
With `GTACCCAA` the E-score was -0.151.
`ACGGGACT` gave an E-score of 0.252.
With `TGCGGGAA` the E-score was 0.263.
`ATCAATGA` has an E-score of 0.0148.

Sample 4
Target: RING finger protein unkempt homolog, zinc fingers 1-6, GST-SBP tag (UNK, Homo sapiens, UniProt Q9C0B0, residues 30-357)
Method: RNA Bind-n-Seq
Molecule type: RNA
Medium: in vitro
Tested at: not given
Setting: RNA with constant flanks, human and mouse sites, ends assumed
Relative to: input RNA pool
Direction: higher = stronger binding
All sequences stand within: GGGAGUUCUACAGUCCGACGAUC … CAACAGAGGAUUGAGCAUCA
Residues (chain): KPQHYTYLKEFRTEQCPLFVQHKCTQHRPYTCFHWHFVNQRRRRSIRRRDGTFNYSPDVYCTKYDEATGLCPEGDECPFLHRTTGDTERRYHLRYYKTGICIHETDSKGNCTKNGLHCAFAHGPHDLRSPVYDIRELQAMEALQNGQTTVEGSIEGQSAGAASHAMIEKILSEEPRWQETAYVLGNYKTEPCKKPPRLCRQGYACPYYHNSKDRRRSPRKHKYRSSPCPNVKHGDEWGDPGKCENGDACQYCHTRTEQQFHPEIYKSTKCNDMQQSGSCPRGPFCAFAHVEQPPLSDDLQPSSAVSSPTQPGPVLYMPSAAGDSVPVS
`UGGAGUAGGUCUUAGAGUGUAACAGAUUGUUUUCCUGAGUUAUCCUCUAGGUGAGUAUGUUUUAGGACUAAACACCUUUUGCAGAUACUGAAAGUGCCUCCUUUUGUGGUAUACAAAACA` gave a bound/input enrichment of 0.081 ratio.
`AUUGUAAAGAAAUUGCCUAUUGUGGAAACACUGGGCUGCUGUAAUGUGAUUUGUUCAGAUAAAACUGGAACCCUGACGAAGAACGAGAUGACUGUUACUCACAUCCUCACUUCCGAUGGC` gave a bound/input enrichment of 0.13 ratio.
`UUUGUUUCUUUUUUUUUUUUUUUCCUGAAAGUUCCUGAAACCACAGUGGAAAGUGAGCCUGUCUCAUAUUUGGCAAAGACAUUUCUUGAAGUGCCCACAUAGCAGAUGUUGGCUGUUUCA` gave a bound/input enrichment of 1.41 ratio.
The bound/input enrichment of `CCAAGGCCUGCAGGUUUGCCUGCAAUGAGACUUUACUCUCUACACUUAAAGAACAUUCUUUCUGAGCUGCUGUGAAUAAAUUUGGAAUGAUUUUGUCUAUUUUCAACUAAUGGAGAACUA` is reported as 0.255 ratio.
`UCUAGAGCUCCCCCAAGACUGACUGUAGUGUCCCCUAACCGAGCUACUUCAACGGAAACUAGCUCAUCUGUAGAGACUGAUUUGCAACCCUUCCGGGAAGCCAUAGCUCUGCAUGGUCUU` has a bound/input enrichment of 1.47 ratio.
`GAACAAGUAUGCCACAUCGAAGCAUGCUAAGAUCAGCACUCUACCACAGCUGAAUUCUGCACUAGUUCAAGAUUUAGCCAAGGCUGUGGCAAAGGUGUAACUUGUAAACUUGAGUUGGAG` has a bound/input enrichment of 0.42 ratio.
The bound/input enrichment of `AAAAUACUUCACAAUGAUCCAGAAGUUGAGAAGAAGCAGGGAUGGACAACCGUAGGGGAUUUGGAAGGAUGUGUACAUUAUAAAGUUGUAAAAUAUGAAAGAAUCAAAUUUCUGGUGAUU` is reported as 1.65 ratio.
For `GUUGGAAUUGAUAUGGAGAUAUCUAAAAACUUUCAACGCAUCCUUCAAAAACAGGGGUUUAAAUUUAAAUUGAAUACAAAGGUUACUGGUGCUACCAAGAAGUCAGAUGGAAAAAUUGAU`, the bound/input enrichment was 0.766 ratio.
With `AAAUUUGAGAAAGUUUGAUCCAAAAUAUUACCUAUUUUAAAAAUCAGGUAAAACAGGAGUAAUAAACGAAAUGGGUUACAUUCAACAUGAGAAAUUGAUUUCCUAGAAGUGAAAUUUAGC` the bound/input enrichment was 0.293 ratio.
The bound/input enrichment of `UCUCUGGAAGCUAUGGGCAGAGCUCAGUUCAUAGUUGUUGGGAAAUAAGUGCUUCAUUUUUAGUUGUUCUGAGUUGAUCCGCACCACUGCACCACAACUCAAUAUGAAAAACUAUUUAAC` is reported as 0.262 ratio.
With `GAGCAUAAAGCUGAGAAAGUCCCAGCCGUAGCUAACUACAUUAUGAAAAUACACAAUUUUACUAGCAAAUGCCUCUACUGUAAUCGCUAUUUGCCUACAGAUACCCUACUCAACCAUAUG` the bound/input enrichment was 4.62 ratio.

Some of these lines once more (sample 1):
The relative absorbance of `AAAAAATGTGGTTACGGCCTCGATGAAAAA` is reported as 36.8 % of maximum.
For `AAAAAATAGGCGTTATGGCTAACACCAAAA`, the relative absorbance was 30.5 % of maximum.
For `AAAAAATGTGCCCGTGTGTGCTCGCGAAAA`, the relative absorbance was 32.8 % of maximum.
`AAAAAAAGGTCATTGCTGCTGGTGTTAAAA` has a relative absorbance of 91.6 % of maximum.
